# Results gathered from unrelated publications.
# Parts stem from different laboratories: compare values within a part only.

# Set 1
# Target: Interferon regulatory factor 5, full length, phosphomimetic (IRF5, Homo sapiens, UniProt Q13568-2, residues 1-514, S451D/S453D/S456D/S462D)
# Technique: protein-binding microarray
# Molecule type: double-stranded DNA, one strand shown
# Matrix: in vitro
# Concentration: 940 nM top
# Notes: 60-bp whole probe
# Added: salmon DNA 0.4 mg/ml
# Baseline: random background probes
# Direction: higher = stronger binding
# Shared flanks, not repeated: GCCTAGCAC … GTCTTGATTCGCTTGACGCTGCTG
Sequence,fitted relative affinity [z-score]
GACGCACTGAGACTGGAGACGTGCTAG,-0.457
GAAAATGCCCTTTTGGTGAGGTGCTAG,-0.447
TTAGGATCCCTTTTCCTTTAGTGCTAG,0.086
TCAGACATCTTCATCAAACTGTGCTAG,0.594
TTAGATATCAGTCTCGCTTAGTGCTAG,1.53
TGGGCACACTTTGGGTCCTGGTGCTAG,-0.795
CTTTTTATGCTTTCTTTAACTGTGCTA,1.51
TTTCTCTCATTATGTGGGTTGTGCTAG,4.77
GACGGTCTAGGACTGGGGACGTGCTAG,-0.282
AAGGTTATCCATCTCAAGTAGTGCTAG,0.305
TTAGGTATCTTTATCCTTTAGTGCTAG,0.813
TTAGGACTGGGGGATCGGTTAGTGCTA,0.945
TCATTCCTCTTTCTCTGACTGTGCTAG,1.54
TTAGAACTGAGTCTCGCTTAGTGCTAG,1.14
AACGATTTCAGTCTCGAGACGTGCTAG,2.07
TCACATGTCTGTGTCACACTGTGCTAG,0.192
GACGGACTGGGGTTTAGGGACGTGCTA,-0.0936
TTAGGACTGCTTCTCATTTAGTGCTAG,-0.124
TTGGATCTCAGTCTCGATTAGTGCTAG,2.97

# Set 2
# Target: Phosphate system positive regulatory protein PHO4, full length, GST-tagged (PHO4, Saccharomyces cerevisiae, UniProt P07270, residues 1-312)
# Technique: competition protein-binding microarray
# Molecule type: double-stranded DNA, one strand shown
# Matrix: in vitro
# Concentration: 2 µM
# Notes: whole 60-bp probe, lowest competitor level
# Added: Cbf1 competitor, 0.05 µM
# Direction: higher = stronger binding
# Shared flanks, not repeated: … GTCTTGATTCGCTTGACGCTGCTG
# Target sequence (chain): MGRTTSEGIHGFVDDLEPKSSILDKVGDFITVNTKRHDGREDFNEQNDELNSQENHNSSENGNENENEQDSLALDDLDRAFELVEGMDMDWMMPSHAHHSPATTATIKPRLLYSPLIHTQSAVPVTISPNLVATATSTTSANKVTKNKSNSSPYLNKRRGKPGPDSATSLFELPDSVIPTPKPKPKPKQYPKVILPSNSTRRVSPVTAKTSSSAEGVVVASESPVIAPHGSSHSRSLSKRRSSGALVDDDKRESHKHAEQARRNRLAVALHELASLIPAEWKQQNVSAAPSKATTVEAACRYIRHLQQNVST
Sequence,fluorescence intensity [a.u.]
CTAAATGGGTAAAAACTCGTGTTTTAGGAAAAAAAA,8090
TCGTATACTTTATGTCTCGTGGGTATAAAAAGCCAA,8790
TGCGCAACAACTTGTCACTCAACTTTATGTCTAGAA,3920
GGAGCAGGACTCTGCCGCGTGTCCTTCCCGGCTCCG,8410
GGCGTTACTGATTTATACGTGGGTATCTACGATGAT,6810
CGGGGTTAAGTTTGACTTGTGGGTGGCTTGCAGCAG,5050
TGCGCAACAACTTGTCACGGCACTTTATGTCTAGAA,4190
GGGAATCCAGGCAGACACGTGCTACCGAGACTTTAA,15100
CTCCTCTGCAGAAAGCACGAGGTTGCCCTTCTACAG,11600
CGGGGTTAAGTTTGTCTCGTGGGTGGCTTGCAGCAG,10700
ATTTTTTGATATCCACACGTTATTGAGCTCATTGAC,9080
AAAGCGGTAATTTGGGGAGTGGGTGCAGATATCTAT,4300
CTTCTGTAAATTTTTCACGTGCTGTGAAGCGCCCCG,13800
TTGAAGGTGAAGCCTTCCGTGCAAAATGCGAAAAAA,3800
TCAAAGTAGCATTAGCTCATAAGGCTTTCACCCTTG,3000
CGGGGTTAAGTTTCTCACGTGTTTTGCTTGCAGCAG,13100
CCCGGCCCCCCCAGCCACGTGAACCCCACAAAGTGC,10400
CATACCCAACCTTGATGCGTGGGTGAAGATATTTGT,9450
CGATCGTATTTTCGGCATGTGGATTATCCTTGCACC,7830

# Set 3
# Target: Sal-like protein 4, full length isoform B (SALL4, Homo sapiens, UniProt Q9UJQ4-2, residues 1-616)
# Technique: universal PBM
# Molecule type: double-stranded DNA, one strand shown
# Matrix: in vitro
# Concentration: not given
# Notes: 8-mer, flanks averaged, mean of replicates
# Direction: higher = stronger binding
# Target sequence (chain): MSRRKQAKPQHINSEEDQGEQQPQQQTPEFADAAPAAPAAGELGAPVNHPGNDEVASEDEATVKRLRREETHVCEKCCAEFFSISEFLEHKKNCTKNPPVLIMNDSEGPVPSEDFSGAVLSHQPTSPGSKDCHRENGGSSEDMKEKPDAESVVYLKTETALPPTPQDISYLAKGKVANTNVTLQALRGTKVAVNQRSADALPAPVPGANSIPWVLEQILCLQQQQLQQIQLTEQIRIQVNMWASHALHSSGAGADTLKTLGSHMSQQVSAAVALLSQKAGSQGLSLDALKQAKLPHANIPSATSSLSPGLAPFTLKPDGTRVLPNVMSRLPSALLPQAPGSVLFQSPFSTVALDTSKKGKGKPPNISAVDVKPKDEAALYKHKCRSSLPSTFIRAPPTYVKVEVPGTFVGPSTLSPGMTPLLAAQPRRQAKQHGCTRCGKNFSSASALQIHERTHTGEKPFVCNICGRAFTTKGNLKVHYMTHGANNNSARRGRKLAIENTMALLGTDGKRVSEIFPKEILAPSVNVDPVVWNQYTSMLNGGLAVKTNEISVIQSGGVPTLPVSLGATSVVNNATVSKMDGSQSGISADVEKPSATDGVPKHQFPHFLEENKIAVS
Sequence,E-score
ATGGAGAC,0.049
ACCAGTGA,-0.0393
ATAATTCA,0.394
GGGTGCGA,-0.195
AACGGTAA,0.0747
CGCGCACG,-0.282
GTCCCAGA,-0.233
TTCATAAA,0.432
ACGATCAG,0.0101
ATTGTCAA,0.165
ATAAGTCC,0.17
AAGGAATC,-0.106
GACCATTA,0.22
GGACTAAC,-0.133
AACATTAC,0.217
GTATCCTA,0.154
CTCACCGA,-0.106
ATTCGAAA,0.143
AGTGAGAG,-0.0279
AAGACAGG,0.0138
AATACGCG,0.00975
ACAAAGCG,0.0326
GGTGGGCA,0.0456
TAACACAA,0.234
AGCGTGCG,-0.204

# Set 4
# Target: Histone acetyltransferase KAT6A, both winged helices, GST fusion (KAT6A, Homo sapiens, UniProt Q92794, residues 1-181)
# Technique: protein binding microarray
# Molecule type: double-stranded DNA, one strand shown
# Matrix: in vitro
# Concentration: not given
# Notes: 8-mer, flanks averaged, mean of 2 arrays, mostly near background
# Baseline: not given
# Direction: higher = stronger binding
# Construct (chain): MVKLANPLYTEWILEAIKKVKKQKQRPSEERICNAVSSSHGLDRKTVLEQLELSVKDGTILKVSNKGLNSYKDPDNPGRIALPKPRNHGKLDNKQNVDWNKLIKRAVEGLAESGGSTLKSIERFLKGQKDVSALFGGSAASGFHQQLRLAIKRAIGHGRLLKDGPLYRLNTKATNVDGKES
Sequence,E-score
GTGGCCGA,0.0901
CTCCCAAA,-0.165
CCCCTGGC,-0.0725
AGATGACA,-0.145
AGGCCAAT,-0.203
CCAAACAA,-0.0864
GCTAGATA,-0.114
GAAGCTAC,-0.00121
AATTTTAG,-0.0812
AAGTCGGA,0.0505
CAACCTCC,0.0651
CGTGGACA,0.123
ACCGTCTA,0.0294
CGTCGGAC,0.221
CTTACCAA,-0.0889
GTGCGCAA,0.173
AGGCCCTA,-0.191
CACCAGGA,-0.143
GCCTAGAC,0.0135
AAGTCGCA,0.118
AACGTACA,-0.0867
CCATCCTC,-0.0873

# For quick reference, copied from above (set 1):
Sequence,fitted relative affinity [z-score]
TCACATGTCTGTGTCACACTGTGCTAG,0.192
TCAGACATCTTCATCAAACTGTGCTAG,0.594
TCATTCCTCTTTCTCTGACTGTGCTAG,1.54
GACGGACTGGGGTTTAGGGACGTGCTA,-0.0936
TTTCTCTCATTATGTGGGTTGTGCTAG,4.77
AAGGTTATCCATCTCAAGTAGTGCTAG,0.305
TTAGGACTGCTTCTCATTTAGTGCTAG,-0.124
